Measured values gathered from unrelated publications.
Lines come from different studies, so protocols differ. Numbers after ± are the reported error.
CBX8: CBX8 (Homo sapiens, UniProt Q9HC52)
UniProt Q9HC52, sequence (whole entry, looked up): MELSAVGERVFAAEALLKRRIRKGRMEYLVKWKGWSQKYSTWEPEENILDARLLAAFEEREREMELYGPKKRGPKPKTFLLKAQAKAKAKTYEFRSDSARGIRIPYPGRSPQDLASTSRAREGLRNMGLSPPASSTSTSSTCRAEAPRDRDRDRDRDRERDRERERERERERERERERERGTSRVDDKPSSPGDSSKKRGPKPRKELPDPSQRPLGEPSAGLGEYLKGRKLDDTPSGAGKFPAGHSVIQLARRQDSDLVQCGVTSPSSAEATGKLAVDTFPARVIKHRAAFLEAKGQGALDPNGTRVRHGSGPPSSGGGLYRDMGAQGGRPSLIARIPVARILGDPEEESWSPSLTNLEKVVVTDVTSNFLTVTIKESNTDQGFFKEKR
SMC6: SMC6 (Saccharomyces cerevisiae, UniProt Q12749)
UniProt Q12749, sequence (whole entry, looked up): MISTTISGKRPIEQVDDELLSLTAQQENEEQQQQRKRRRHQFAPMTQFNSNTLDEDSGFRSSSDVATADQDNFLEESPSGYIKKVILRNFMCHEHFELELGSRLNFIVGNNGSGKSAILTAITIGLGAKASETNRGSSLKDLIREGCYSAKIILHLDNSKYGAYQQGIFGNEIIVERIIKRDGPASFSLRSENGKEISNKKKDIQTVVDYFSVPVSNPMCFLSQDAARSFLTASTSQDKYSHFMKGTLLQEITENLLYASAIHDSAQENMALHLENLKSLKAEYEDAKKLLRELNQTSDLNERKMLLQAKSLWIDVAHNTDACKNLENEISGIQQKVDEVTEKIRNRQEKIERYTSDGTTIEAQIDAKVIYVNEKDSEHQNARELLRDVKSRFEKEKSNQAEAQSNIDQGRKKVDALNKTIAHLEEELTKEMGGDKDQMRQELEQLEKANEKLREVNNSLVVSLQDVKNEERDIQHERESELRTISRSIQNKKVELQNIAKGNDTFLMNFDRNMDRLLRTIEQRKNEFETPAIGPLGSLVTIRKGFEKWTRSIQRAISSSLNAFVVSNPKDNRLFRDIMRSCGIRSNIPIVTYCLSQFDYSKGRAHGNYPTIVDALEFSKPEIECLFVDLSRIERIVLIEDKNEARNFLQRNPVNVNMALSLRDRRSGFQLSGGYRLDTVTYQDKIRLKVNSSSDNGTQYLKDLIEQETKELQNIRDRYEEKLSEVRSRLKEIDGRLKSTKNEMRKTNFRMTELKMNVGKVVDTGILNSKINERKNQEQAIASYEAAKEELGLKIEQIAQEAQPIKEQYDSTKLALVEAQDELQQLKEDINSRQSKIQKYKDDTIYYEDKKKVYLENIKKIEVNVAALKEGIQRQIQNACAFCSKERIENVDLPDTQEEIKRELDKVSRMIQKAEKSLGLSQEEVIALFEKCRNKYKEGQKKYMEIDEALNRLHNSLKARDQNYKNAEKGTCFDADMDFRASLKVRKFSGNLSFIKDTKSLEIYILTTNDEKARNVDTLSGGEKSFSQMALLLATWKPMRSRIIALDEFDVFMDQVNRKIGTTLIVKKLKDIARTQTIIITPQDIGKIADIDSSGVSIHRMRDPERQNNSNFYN
B1: human septin-9; sequence looked up; chain MKKSYSGGTRTSSGRLRRLGDSSGPALKRSFEVEEVETPNSTPPRRVQTPLLRATVASSTQKFQDLGVKNSEPSARHVDSLSQRSPKASLRRVELSGPKAAEPVSRRTELSIDISSKQVENAGAIGPSRFGLKRAEVLGHKTPEPAPRRTEITIVKPQESAHRRMEPPASKVPEVPTAPATDAAPKRVEIQMPKPAEAPTAPSPAQTLENSEPAPVSQLQSRLEPKPQPPVAEATPRSQEATEAAPSCVGDMADTPRDAGLKQAPASRNEKAPVDFGYVGIDSILEQMRRKAMKQGFEFNIMVVGQSGLGKSTLINTLFKSKISRKSVQPTSEERIPKTIEIKSITHDIEEKGVRMKLTVIDTPGFGDHINNENCWQPIMKFINDQYEKYLQEEVNINRKKRIPDTRVHCCLYFIPATGHSLRPLDIEFMKRLSKVVNIVPVIAKADTLTLEERVHFKQRITADLLSNGIDVYPQKEFDEDSEDRLVNEKFREMIPFAVVGSDHEYQVNGKRILGRKTKWGTIEVENTTHCEFAYLRDLLIRTHMQNIKDITSSIHFEAYRVKRLNEGSSAMANGMEEKEPEAPEM
B2: human SCYL2; sequence looked up; chain MESMLNKLKSTVTKVTADVTSAVMGNPVTREFDVGRHIASGGNGLAWKIFNGTKKSTKQEVAVFVFDKKLIDKYQKFEKDQIIDSLKRGVQQLTRLRHPRLLTVQHPLEESRDCLAFCTEPVFASLANVLGNWENLPSPISPDIKDYKLYDVETKYGLLQVSEGLSFLHSSVKMVHGNITPENIILNKSGAWKIMGFDFCVSSTNPSEQEPKFPCKEWDPNLPSLCLPNPEYLAPEYILSVSCETASDMYSLGTVMYAVFNKGKPIFEVNKQDIYKSFSRQLDQLSRLGSSSLTNIPEEVREHVKLLLNVTPTVRPDADQMTKIPFFDDVGAVTLQYFDTLFQRDNLQKSQFFKGLPKVLPKLPKRVIVQRILPCLTSEFVNPDMVPFVLPNVLLIAEECTKEEYVKLILPELGPVFKQQEPIQILLIFLQKMDLLLTKTPPDEIKNSVLPMVYRALEAPSIQIQELCLNIIPTFANLIDYPSMKNALIPRIKNACLQTSSLAVRVNSLVCLGKILEYLDKWFVLDDILPFLQQIPSKEPAVLMGILGIYKCTFTHKKLGITKEQLAGKVLPHLIPLSIENNLNLNQFNSFISVIKEMLNRLESEHKTKLEQLHIMQEQQKSLDIGNQMNVSEEMKVTNIGNQQIDKVFNNIGADLLTGSESENKEDGLQNKHKRASLTLEEKQKLAKEQEQAQKLKSQQPLKPQVHTPVATVKQTKDLTDTLMDNMSSLTSLSVSTPKSSASSTFTSVPSMGIGMMFSTPTDNTKRNLTNGLNANMGFQTSGFNMPVNTNQNFYSSPSTVGVTKMTLGTPPTLPNFNALSVPPAGAKQTQQRPTDMSALNNLFGPQKPKVSMNQLSQQKPNQWLNQFVPPQGSPTMGSSVMGTQMNVIGQSAFGMQGNPFFNPQNFAQPPTTMTNSSSASNDLKDLFG
UniProt Q12146, sequence (whole entry, looked up): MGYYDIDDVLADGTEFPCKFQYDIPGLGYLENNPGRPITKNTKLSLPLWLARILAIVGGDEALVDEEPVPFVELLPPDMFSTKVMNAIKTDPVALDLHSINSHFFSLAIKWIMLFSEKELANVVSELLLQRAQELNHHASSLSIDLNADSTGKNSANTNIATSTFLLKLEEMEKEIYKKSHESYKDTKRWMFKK
UniProt P29496, sequence (whole entry, looked up): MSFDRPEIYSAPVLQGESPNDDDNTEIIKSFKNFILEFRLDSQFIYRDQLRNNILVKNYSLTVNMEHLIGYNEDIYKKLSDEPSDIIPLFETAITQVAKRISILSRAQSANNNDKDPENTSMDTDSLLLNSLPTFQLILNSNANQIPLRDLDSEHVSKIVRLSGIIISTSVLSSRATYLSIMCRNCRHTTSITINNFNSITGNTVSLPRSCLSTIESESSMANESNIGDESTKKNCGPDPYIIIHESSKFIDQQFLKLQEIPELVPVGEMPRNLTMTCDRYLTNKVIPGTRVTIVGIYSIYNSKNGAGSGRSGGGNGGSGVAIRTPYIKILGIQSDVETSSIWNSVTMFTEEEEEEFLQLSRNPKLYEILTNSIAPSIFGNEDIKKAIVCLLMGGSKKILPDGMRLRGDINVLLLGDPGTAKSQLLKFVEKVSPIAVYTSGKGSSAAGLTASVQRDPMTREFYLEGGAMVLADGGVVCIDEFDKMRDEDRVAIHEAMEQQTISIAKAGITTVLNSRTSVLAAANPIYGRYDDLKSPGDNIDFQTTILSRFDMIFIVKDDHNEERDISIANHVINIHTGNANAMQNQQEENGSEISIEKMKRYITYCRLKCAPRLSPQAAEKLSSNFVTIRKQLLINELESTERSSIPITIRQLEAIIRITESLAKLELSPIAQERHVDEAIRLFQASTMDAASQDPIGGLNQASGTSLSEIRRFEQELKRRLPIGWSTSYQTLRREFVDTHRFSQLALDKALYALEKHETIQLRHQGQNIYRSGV
UniProt Q03718, sequence (whole entry, looked up): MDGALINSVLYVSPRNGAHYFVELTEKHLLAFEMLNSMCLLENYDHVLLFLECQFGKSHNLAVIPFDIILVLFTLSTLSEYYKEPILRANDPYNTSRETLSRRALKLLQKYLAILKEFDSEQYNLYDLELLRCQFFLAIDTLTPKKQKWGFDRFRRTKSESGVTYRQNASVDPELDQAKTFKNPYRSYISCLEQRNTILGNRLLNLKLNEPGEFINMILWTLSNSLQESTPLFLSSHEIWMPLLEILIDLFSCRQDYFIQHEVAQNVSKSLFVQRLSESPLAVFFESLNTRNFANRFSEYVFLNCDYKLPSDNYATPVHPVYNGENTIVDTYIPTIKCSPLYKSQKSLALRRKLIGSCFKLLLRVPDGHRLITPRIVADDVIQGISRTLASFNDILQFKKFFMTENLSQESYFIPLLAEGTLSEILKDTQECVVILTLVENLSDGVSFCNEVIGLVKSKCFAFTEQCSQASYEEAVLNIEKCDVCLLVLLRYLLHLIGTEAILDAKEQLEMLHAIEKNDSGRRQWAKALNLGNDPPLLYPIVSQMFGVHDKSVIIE
UniProt Q07913, sequence (whole entry, looked up): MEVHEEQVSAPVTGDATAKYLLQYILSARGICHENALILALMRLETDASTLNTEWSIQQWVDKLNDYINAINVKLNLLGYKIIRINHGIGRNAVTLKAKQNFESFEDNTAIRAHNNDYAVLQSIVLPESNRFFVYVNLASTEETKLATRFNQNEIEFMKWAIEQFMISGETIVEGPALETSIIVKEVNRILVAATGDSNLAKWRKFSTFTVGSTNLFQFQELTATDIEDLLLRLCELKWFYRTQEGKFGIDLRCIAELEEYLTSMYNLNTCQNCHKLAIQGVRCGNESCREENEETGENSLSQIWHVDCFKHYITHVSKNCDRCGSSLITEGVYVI
UniProt Q96LB3, sequence (whole entry, looked up): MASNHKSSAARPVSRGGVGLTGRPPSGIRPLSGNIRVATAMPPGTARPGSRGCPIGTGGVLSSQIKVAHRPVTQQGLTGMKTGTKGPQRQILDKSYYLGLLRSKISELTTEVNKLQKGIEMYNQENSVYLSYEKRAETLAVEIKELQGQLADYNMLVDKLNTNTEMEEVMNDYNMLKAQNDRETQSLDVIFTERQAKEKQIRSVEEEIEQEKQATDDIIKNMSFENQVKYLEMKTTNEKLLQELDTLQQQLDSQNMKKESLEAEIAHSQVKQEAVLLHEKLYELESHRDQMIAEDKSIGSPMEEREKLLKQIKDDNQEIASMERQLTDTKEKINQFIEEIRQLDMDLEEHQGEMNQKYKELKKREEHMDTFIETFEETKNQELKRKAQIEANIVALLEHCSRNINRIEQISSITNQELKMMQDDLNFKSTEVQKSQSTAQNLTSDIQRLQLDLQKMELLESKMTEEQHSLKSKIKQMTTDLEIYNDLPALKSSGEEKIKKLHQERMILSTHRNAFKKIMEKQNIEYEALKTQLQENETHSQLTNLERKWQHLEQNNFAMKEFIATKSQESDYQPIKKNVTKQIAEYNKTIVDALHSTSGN
UniProt P38632, sequence (whole entry, looked up): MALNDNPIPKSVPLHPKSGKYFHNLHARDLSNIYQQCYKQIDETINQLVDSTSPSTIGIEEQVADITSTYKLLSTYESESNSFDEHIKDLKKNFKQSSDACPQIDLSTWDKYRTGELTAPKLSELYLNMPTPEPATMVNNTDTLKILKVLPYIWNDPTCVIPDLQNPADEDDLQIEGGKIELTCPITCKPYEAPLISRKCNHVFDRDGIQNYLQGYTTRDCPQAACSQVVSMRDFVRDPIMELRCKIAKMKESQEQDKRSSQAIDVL
UniProt P84090, sequence (whole entry, unmodified, looked up): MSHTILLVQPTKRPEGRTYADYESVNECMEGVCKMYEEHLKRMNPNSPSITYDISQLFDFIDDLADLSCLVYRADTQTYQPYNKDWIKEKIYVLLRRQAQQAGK
UniProt P50874, sequence (whole entry, looked up): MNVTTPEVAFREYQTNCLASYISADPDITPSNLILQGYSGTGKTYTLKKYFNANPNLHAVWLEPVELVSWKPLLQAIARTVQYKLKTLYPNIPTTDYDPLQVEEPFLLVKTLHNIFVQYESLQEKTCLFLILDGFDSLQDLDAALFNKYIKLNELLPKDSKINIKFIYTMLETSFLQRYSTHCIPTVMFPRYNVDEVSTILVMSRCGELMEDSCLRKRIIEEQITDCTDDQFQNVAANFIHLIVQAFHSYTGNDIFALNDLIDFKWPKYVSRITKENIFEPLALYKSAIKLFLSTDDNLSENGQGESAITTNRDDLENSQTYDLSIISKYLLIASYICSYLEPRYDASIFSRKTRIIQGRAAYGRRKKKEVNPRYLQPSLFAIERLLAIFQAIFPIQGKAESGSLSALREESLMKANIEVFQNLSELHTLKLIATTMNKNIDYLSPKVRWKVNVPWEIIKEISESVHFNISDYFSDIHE

Molecule	target or system	test	system	setting	scale	endpoint	value
BMI1 (Homo sapiens, UniProt P35226)	CBX8	cross-linking MS	–	hits only	–	interaction screen	cross-linked
B1 (human septin-9)	PP6C (human)	co-immunoprecipitation, IP-MS	CYB5R4 knockout cells	concentration not given	relative to: CYB5R4 knockout over parental	log2 fold change	-0.89
HTA1 (Saccharomyces cerevisiae, UniProt P04911)	HHT1 (Saccharomyces cerevisiae, UniProt P61830)	cross-linking MS	–	hits only	–	interaction screen	cross-linked
H2BC18 (Homo sapiens, UniProt Q5QNW6)	H2BC9 (Homo sapiens, UniProt Q93079)	cross-linking MS	–	hits only	–	interaction screen	cross-linked
PRTARHAPAVRKFSPDLKLLKDVKISVSFTE (DGCR8(96-126), SUMO-tagged)	Enhancer of rudimentary homolog (Homo sapiens, UniProt P84090, M35A)	binding, isothermal titration calorimetry	peptide	293 K, with: DGCR8 peptide, SUMO-tagged	–	Kd	21.3 ± 4.32 µM
colistin	Pseudomonas aeruginosa	–	clinical isolate RKI 484/12	–	–	MIC	≤ 1 mg/L
MMS21 (Saccharomyces cerevisiae, UniProt P38632)	SMC6	cross-linking MS	–	hits only	–	interaction screen	cross-linked
B2 (human SCYL2)	PP6C (human)	co-immunoprecipitation, IP-MS	CYB5R4 knockout cells	concentration not given	relative to: CYB5R4 knockout over parental	log2 fold change	-0.89
NSE1 (Saccharomyces cerevisiae, UniProt Q07913)	SMC6	cross-linking MS	–	hits only	–	interaction screen	cross-linked
ORC2 (Saccharomyces cerevisiae, UniProt P32833)	ORC5 (Saccharomyces cerevisiae, UniProt P50874)	cross-linking MS	–	hits only	–	interaction screen	cross-linked
MCM5 (Saccharomyces cerevisiae, UniProt P29496)	PSF3 (Saccharomyces cerevisiae, UniProt Q12146)	cross-linking MS	–	hits only	–	interaction screen	cross-linked
IFT81 (Homo sapiens, UniProt Q8WYA0)	IFT74 (Homo sapiens, UniProt Q96LB3)	cross-linking MS	–	hits only	–	interaction screen	cross-linked
Histone H2B type 1-C/E/F/G/I (Homo sapiens, UniProt P62807)	CBX8	cross-linking MS	–	hits only	–	interaction screen	cross-linked
AGGCUGUUUUAAUCUCUUCUAA (ssRNA)	U2AF2 148-342 (Homo sapiens, UniProt P26368)	MST	RNA	–	–	Kd	11.5 ± 1.18 µM
KRE29 (Saccharomyces cerevisiae, UniProt P40026)	NSE5 (Saccharomyces cerevisiae, UniProt Q03718)	cross-linking MS	–	hits only	–	interaction screen	cross-linked
SLC25A6 (Homo sapiens, UniProt P12236)	H2BC5 (Homo sapiens, UniProt P58876)	cross-linking MS	–	hits only	–	interaction screen	cross-linked
MYH9 (Homo sapiens, UniProt P35579)	PSMD1 (Homo sapiens, UniProt Q99460)	cross-linking MS	–	hits only	–	interaction screen	cross-linked
